Assay results pooled from the literature.
Parts stem from different laboratories: compare values within a part only. Positions count from the first letter of the parent shown.

Study 1
Target: Hepatocyte nuclear factor 3-alpha (Foxa1, Mus musculus, UniProt P35582, residues 1-468, full length assumed)
Technique: EMSA with sequencing
Molecule type: double-stranded DNA, one strand shown
Matrix: in vitro
Tested at: 10 and 20 nM
Setting: whole designed probe, mean of two concentrations, ends assumed
Reference: negative control set to 0
Direction: higher = stronger binding
Construct (chain): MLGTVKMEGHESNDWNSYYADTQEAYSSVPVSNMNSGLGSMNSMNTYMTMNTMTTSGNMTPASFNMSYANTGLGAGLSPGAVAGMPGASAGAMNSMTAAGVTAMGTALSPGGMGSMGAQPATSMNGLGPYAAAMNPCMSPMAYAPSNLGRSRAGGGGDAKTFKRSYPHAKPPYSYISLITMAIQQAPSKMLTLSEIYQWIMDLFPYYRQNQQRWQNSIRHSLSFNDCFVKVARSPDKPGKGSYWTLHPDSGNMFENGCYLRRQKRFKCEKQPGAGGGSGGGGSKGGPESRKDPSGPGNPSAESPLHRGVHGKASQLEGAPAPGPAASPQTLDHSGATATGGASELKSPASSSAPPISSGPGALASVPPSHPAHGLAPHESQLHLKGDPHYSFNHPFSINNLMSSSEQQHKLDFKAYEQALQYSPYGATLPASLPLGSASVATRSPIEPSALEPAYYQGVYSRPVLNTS
| Sequence | normalised bound fraction [ratio] |
| --- | --- |
| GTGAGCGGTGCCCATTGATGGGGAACACTGCCTGCTCCCAGATATATAGCATTAGGGCAGGGATAAATTTCAAGCTGGCAAAAGTCCAAACCCAACAGTTGCAGCTGTAGTAGCTGCCTTGTTTACAAAGCAATTCAGGAAGCTTTTAGAGGGCAGAGTGCACCAGACAGAAGGGGGTCTGTACGCAAAACATGGATGCATCCCAATGCTTTCAGAACATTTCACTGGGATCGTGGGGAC | 0.265 |
| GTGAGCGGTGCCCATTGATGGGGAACAGCAAGGCTTTAAAAGTGAGGTCTTTCAGTTTAGATGCAAAAAGGGTGGTTCTGTTGAGTCAACCCAGTTTCGTAATGCTATTTCACTACATAGTAAACACCTAGAATGAGGTAGCTGGAGTGCAAATCTAAATGGCTTGTGACAGTTAAGGAAGTACATAGGCAACAGTTACTGGTTTTCTTGATGCAGCTGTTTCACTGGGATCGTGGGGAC | 0.0125 |
| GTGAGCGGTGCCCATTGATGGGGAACCAGGACATAGCACACTTTTGAATTCATTTTACAACTATTTATTGAGTGCTTTTTATGTGCCAGATTCCCCCCAGCTCCCACTGGTGGTACAGTGTAATTTTAGCTGTGAAAACATGCACTTTTCTCAGCCTTCATTATCATTCTAGTGAAGGGGGCAGATGGTAAACAACTGAACAATTAAGTAATCTTGACATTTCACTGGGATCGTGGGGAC | 0.152 |
| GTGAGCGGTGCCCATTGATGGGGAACCTGGCCTATCTCCCACCCCTAATGTCCCACACCAGTTCCTGATCTCCTGCCCCACCCCTCCTGCACCCTGCCCCTTCTCAGGTGACTCACTGTGTCAACATCCTTGAAGGAATGATTTCTGGTTCATGGCCCCAGAGCTGGAGCTTTGGAAGGATAATGGGAAAAGCAGCCAGGGTCCCTGCCCTCAAGAGACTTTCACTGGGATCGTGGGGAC | 0.253 |
| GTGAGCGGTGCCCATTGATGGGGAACAAATGACATTTGGTGGCATTCAAGATGTAAATTACACTCAGCATACTGAACGTCCGTGCAACAGATTGCATTAGGTTCAAGCCTCAGGCTCTTAGATTGCTGAGGTTCACCTAACGTAGTTTAGCCCCATAAAGATTCCTGAAAGAGGCTCTTTGAGCTAAAGCAACTCCATAGAAAGTCATGCATGTGCAGCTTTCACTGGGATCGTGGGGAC | -0.047 |
| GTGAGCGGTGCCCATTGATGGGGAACTCTAGAGACATTTCTTGGACAAAAGAAAAAAAACAAAGCTGAATTGTGAGAAGATGTCAGCAAAAAAGCACATCATTATTTAAATCAGGGCTAAGTAATTTAGGAGCTGGATGTGTCTGAGATTGCTTACAACACGTAGGATCAATTCATATATTTTAAGAAGTGCACGTATGGATTGAGCTGATTTGATTAATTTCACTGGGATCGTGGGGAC | -0.0103 |
| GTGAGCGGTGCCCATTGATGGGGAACGAGTGAGTAAGTGAGTGTGTGTGTGTGTGTGTGTGTGTGTGTGTGTGTGTGTGTGCTGGAGGTATGGCAGCTACCTCTTGCACATAATATTTGAGAGTACATATGTATATATGTGTGTGTATATATATGTGTGTATGTGTATATATACGCACATATATGTGCGTGTATGTGTGTATATACACACGTATGTGTGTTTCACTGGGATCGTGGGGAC | 0.205 |
| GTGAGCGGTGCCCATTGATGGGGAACATACACAGCAGAGAAGTCACATCCTAGTTACTCTCACTTTCTACCTTGTATTACTACTTTTCGTACCCCTAGCTTATTGCTATTAGTACAATGTAAACAGGGAGTTCACACACACATACCCCTGGTCTAAGAAGAATAAAAAATGAAGGAGATTTCTGTTTGTATAGAAAACAGAAGTCACCTTGACTTTTATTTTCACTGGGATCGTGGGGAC | 0.377 |

Study 2
Target: RNA binding protein fox-1 homolog 2, RRM domain, GST-SBP tag (RBFOX2, Homo sapiens, UniProt O43251-10, residues 100-194)
Technique: RNA Bind-n-Seq
Molecule type: RNA
Matrix: in vitro
Tested at: 365 nM
Setting: natural RNA segment, single round, ends assumed
Reference: no-protein control
Direction: higher = stronger binding
Construct (chain): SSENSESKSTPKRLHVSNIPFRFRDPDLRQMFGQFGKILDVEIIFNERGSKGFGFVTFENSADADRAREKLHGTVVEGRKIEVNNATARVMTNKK
| Sequence | RBNS enrichment (R) |
| --- | --- |
| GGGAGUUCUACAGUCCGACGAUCGGAUGGGAAGGAGCAGCCAGGCGUGGGAAGCGGCGAGAUCCUCGGGCUGGGGGUGCCCACGUUUGCUACCUCCCACUGUGAAAUCGCUGGUGCUCACAAUUGUCUCUCACUGGAAUUCUCGGGUGCCAA | 1.1 |
| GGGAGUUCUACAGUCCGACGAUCUUUGUACUCUUGUUUUUGCAUAACUGGUUUUGUUUUUUUGCAGAAUUAACUAUAACAAUCACUGGCUACCGAAGUAAACUGAUGUACUGAAUUCCAUAAUACAUAACAUUUGGAAUUCUCGGGUGCCAA | 0.387 |
| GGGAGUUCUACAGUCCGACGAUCGUAGUUCUUUUCUGGCCCUUUCCCCUGCCUGGUCUAGCAACUCUUGGAACAGCCAUGCCUUCCAAAAGCUAUCAACCUGGGCCCUGAGCCCUGUAAGCAGAUGCCCCAGAUGGAAUUCUCGGGUGCCAA | 0.273 |
| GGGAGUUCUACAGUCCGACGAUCGGCACCCUGCCUGUGAGGGCCACUUUCCUCUUCUAGUAGCUGUUGUCUGGUGGGGACGCAGUGGCCCUGGACACGGCUCCCCUCUGCAGGUCUGCAGGUCGGUUUGCUGCUGGAAUUCUCGGGUGCCAA | 0.773 |
| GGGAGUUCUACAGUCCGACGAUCUUUGCUGCCUCGCCAGUAGAGGGUGCCGCUGUGCAGGGUAACUGCCCGCCUGCUCCCUUCCUGACCUCCCCUGACCCCGAAGAUCACUACCUCUGUCAUUCAGGCAUUGGUGGAAUUCUCGGGUGCCAA | 0.264 |
| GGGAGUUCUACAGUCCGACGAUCUAUGUCGAGGCUAUCCAGUGACAGCCCAUGGGCAGGCUGGCGGAGAGACGGAAAUGGGCAGUUCAGGAGCUCCGUUAGCCUUGGCCUGGGCAGUGACACCUCUAGUGCCCUGGAAUUCUCGGGUGCCAA | 0.512 |
| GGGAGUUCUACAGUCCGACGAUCCUUCAUCCAGAAUGAGCAAAACACUGUCCAGUCUUUGUUACGAUUUUGUAAUAAAUGUGUACAUUUUUUUUAAAUUUUGGACAUCACAUGAAUAAAGGUAUGUAUGUACGUGGAAUUCUCGGGUGCCAA | 0.263 |
| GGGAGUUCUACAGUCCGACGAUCCAGAUACCCAGUGGAAUUCCAACUUGAAGGAUUGCAUCCUGCUGGGGCUGAACAUGCCUGCCAAAGACGUGUCCGACCUACGUUCCUGGCCCCCUCAUUCAGAGACUGCCUGGAAUUCUCGGGUGCCAA | 0.819 |

Study 3
Substitution: S42E
Target: ABI1, truncated, D143A, DHFR fusion (Arabidopsis thaliana)
Technique: DHFR PCA, deep sequencing
Matrix: yeast
Setting: methotrexate growth selection, single substitutions
Reference: wild-type fitted maximum
Direction: higher = stronger binding
Parent: PYL1, truncated, DHFR fusion (Arabidopsis thaliana); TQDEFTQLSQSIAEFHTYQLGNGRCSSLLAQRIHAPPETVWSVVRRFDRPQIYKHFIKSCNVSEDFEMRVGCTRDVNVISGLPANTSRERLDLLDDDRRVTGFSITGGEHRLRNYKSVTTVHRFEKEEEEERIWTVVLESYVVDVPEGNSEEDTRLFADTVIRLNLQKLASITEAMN
| setting | relative binding score [%] |
| --- | --- |
| with: (+)-ABA 2500 µM | 107 |
| with: (+)-ABA 1.4 µM | 61.1 |
| with: (+)-ABA 0.11 µM | 36.5 |
| with: (+)-ABA 0.0091 µM | 34.6 |
| with: (+)-ABA 58 µM | 94 |
| with: (+)-ABA 0 µM | 32.9 |

Other studies, line by line
| Molecule | target | test | system | setting | endpoint | value |
| --- | --- | --- | --- | --- | --- | --- |
| VYWENEVSI | HLA class I histocompatibility antigen, C alpha chain, allele C*04:01 (Homo sapiens, UniProt P10321) | peptide-MHC binding | peptide | concentration not given | binding | inactive |

Excerpt of the above (study 2):
| Sequence | RBNS enrichment (R) |
| --- | --- |
| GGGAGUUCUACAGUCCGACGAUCCUUCAUCCAGAAUGAGCAAAACACUGUCCAGUCUUUGUUACGAUUUUGUAAUAAAUGUGUACAUUUUUUUUAAAUUUUGGACAUCACAUGAAUAAAGGUAUGUAUGUACGUGGAAUUCUCGGGUGCCAA | 0.263 |
